# Measured values collected from several papers.
# Each numbered part is a random draw from the data of one study; scales do not carry over between parts. Substitutions count along the parent as printed.

# Set 1
# Target: Centromere-binding protein 1, full length, His-tagged (CBF1, Saccharomyces cerevisiae, UniProt P17106, residues 1-351)
# Sequence of UniProt P17106 (whole entry, looked up): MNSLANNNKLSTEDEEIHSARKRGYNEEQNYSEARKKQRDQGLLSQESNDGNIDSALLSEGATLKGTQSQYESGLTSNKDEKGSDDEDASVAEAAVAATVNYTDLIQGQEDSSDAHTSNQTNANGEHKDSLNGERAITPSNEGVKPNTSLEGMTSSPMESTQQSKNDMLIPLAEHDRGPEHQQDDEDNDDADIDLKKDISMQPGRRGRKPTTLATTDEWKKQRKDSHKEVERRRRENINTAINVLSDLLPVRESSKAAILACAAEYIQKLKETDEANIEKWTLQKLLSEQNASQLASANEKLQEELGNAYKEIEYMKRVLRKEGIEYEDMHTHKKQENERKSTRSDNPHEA
# Method: competition protein-binding microarray
# Molecule type: double-stranded DNA, one strand shown
# Sample: in vitro
# Tested at: 2 µM
# Setting: whole 60-bp probe, lowest competitor level
# Together with: Pho4 competitor, 0.05 µM
# Direction: higher = stronger binding
# Constant ends, left off below: … GTCTTGATTCGCTTGACGCTGCTG
Strand,fluorescence intensity [a.u.]
TGCGCAACAACTTGGGGTGTGGGTGTATGTCTAGAA,63.7
CTTTCCCGATCTTTTCACGTGGCCTTAGCACATTTG,744
TTTTCTAAGCTTTGTCGCGTGAGATCGCTTCTCATT,97
AACGATATTTCAGATCAGGTGACGGTTGCTGGTTCA,1310
CTTCTGTAAATTTGGCCCGTGGGTGGACGCGCCCCG,62.6
CTTTCCCGATCTTGTCACACAACTTTAGCACATTTG,91
CTTCTGTAAATTTGCTCTGTGGGTGGACGCGCCCCG,78.3
GGCAAGAGTTCTGCATTCGTGATGGATATCGGCGCG,67.1
GGTTCCATTAGTGATGGCGTGCTTTGCTCAACACAA,71.2
GTAATGCCATGGTTTCGCGTGCTTTTTTCCCCTTGC,100
TTCGAAAAAAATACCCACGTGCTTTTTGGAAATGAA,2240
TGCGCAACAACTTGTACTGTGGGTGTATGTCTAGAA,65.7
CTTTCCCGATCTTGACAGGTGGGTGTAGCACATTTG,69.9
CGGGGTTAAGTTTGTCACTTGACTTGCTTGCAGCAG,123

# Set 2
# Target: Sal-like protein 4, full length isoform A (SALL4, Homo sapiens, UniProt Q9UJQ4, residues 1-1053)
# Sequence of UniProt Q9UJQ4 (whole entry, looked up): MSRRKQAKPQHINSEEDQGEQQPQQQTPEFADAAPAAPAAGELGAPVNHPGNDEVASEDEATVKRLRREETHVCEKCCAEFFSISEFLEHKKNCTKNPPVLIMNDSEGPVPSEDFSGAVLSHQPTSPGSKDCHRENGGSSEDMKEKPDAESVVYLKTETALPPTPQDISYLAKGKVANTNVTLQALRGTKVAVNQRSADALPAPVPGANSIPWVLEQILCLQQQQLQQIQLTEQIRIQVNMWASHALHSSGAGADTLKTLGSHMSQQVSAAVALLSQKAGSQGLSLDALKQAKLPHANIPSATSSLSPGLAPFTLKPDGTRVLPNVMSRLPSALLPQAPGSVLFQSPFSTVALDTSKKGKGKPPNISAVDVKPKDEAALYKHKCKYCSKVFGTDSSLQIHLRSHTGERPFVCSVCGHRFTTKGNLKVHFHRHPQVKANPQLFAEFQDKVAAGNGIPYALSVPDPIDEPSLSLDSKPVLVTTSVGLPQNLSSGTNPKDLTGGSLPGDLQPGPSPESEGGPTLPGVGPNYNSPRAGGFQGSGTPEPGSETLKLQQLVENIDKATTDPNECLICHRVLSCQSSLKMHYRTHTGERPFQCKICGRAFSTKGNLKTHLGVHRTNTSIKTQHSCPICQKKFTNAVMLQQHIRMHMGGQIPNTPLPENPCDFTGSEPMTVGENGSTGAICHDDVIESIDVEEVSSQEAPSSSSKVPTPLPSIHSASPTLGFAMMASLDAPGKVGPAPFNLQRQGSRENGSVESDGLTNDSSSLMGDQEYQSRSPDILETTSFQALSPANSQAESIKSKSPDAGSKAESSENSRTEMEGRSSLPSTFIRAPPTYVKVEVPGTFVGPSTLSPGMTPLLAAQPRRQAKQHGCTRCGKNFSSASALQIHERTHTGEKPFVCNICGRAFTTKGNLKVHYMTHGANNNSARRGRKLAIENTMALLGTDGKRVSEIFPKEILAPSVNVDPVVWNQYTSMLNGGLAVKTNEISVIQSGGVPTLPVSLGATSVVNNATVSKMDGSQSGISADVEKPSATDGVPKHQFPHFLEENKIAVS
# Method: universal PBM
# Molecule type: double-stranded DNA, one strand shown
# Sample: in vitro
# Tested at: 600 nM
# Setting: 8-mer, flanks averaged, mean of replicates
# Direction: higher = stronger binding
Strand,E-score
ACACAGAG,-0.0659
CGAGTGCC,-0.271
GCGAGCGA,-0.187
GTCTCAGA,-0.0398
GGACCTCA,-0.199
ACAGAGGC,-0.151
AAAGATTG,0.16
GGGGATCA,-0.189
CCACGACC,-0.278
AGCGCTTA,-0.141
CAAAGGGG,-0.134
CACGCGTC,-6e-05
GCTTCTAC,-0.0233

# Set 3
# Target: CCNE1, cyclin fold, Cln2 fusion (human)
# Method: yeast growth competition, sequencing
# Sample: yeast
# Setting: weak parent motif
# Relative to: not given
# Direction: higher = stronger binding
# Starting sequence: HASPIN docking peptide (human); ASLRSVLFGLMNS
Variant,normalised enrichment score
L3A,0.459
F8A,0.288
N12A,1.32
S5A,1.34
S2A,0.402
L7A,0.147

# Mixed results
Molecule,target,assay,test system,conditions,scale,endpoint,value
"PhoQ, residues 284 288 289 292 302 303 SSTLLI","PhoP, residues 12 14 15 18 19 SMASL (Escherichia coli, UniProt P23836)","Sort-seq, item: YFP reporter",E. coli,"PhoQ-PhoP variant library, together with: 10 µM Mg2+","relative to: high Mg2+ state, higher = stronger signaling",fold induction,10.8

# For quick reference, copied from above (set 2):
Strand,E-score
GCTTCTAC,-0.0233
AGCGCTTA,-0.141
CGAGTGCC,-0.271
